# Published values pooled from the literature.
# Target: Serine/threonine-protein kinase ULK1 (ULK1, Homo sapiens, UniProt O75385)
# One construct used (O75385 1-1050): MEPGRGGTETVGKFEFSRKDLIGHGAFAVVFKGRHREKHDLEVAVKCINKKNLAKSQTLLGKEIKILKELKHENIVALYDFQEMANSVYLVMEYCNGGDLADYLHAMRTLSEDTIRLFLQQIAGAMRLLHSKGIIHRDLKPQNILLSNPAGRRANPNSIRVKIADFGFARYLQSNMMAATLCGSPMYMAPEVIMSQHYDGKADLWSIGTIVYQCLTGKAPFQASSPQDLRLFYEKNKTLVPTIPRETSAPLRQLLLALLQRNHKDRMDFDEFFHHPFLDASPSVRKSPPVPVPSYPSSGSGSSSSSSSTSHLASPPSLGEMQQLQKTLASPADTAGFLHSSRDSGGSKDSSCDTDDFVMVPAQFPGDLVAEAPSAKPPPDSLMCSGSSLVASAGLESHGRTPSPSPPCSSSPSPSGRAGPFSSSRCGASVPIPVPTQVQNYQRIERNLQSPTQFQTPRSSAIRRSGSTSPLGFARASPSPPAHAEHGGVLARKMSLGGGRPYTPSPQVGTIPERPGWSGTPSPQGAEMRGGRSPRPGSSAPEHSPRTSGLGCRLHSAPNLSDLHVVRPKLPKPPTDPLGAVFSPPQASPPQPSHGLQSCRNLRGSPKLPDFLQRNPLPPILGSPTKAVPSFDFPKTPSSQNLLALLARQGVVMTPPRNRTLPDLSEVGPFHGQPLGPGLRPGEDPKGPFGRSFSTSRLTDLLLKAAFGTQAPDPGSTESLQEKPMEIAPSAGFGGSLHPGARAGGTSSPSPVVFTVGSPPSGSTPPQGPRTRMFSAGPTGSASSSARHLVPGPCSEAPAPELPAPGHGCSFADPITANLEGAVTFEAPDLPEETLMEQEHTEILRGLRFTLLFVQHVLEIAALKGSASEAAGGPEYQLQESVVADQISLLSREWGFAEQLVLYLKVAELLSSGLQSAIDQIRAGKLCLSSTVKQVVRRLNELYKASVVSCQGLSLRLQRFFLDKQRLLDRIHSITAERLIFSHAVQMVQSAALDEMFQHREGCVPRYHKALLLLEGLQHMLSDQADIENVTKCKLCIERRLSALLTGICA
Structure (SMILES),test,test system,conditions,how to read,endpoint,value
CN1CCN(CC(=O)N2CCN(CC(OCc3ccc4ccccc4c3)c3ccc(Cl)cc3Cl)CC2)CC1 (stereo not drawn),"enzyme activity, inhibitor, ADP detection",,0.1 µM,,activity vs control,163%
Cc1ccc(C(=O)Nc2ccc(CN3CCN(C)CC3)c(C(F)(F)F)c2)cc1C#Cc1cnc2cccnn12,"target engagement, NanoBRET",human cells,,,upper asymptote,3.9
NC(=O)C[C@H]1CCc2sc3ncnc(O[C@H]4CC[C@H](N5CCOCC5)CC4)c3c21,"enzyme activity, inhibitor",,10 µM,,inhibition,-2%
C=CC(=O)N1CCc2ccc(-n3c(=O)ccc4cnc5ccc(-c6cnn(C)c6)cc5c43)cc21,KINOMEscan,,1 µM,relative to: DMSO control,remaining binding,100%
CNC1C[S+]2CC[S+]3CC[S+](C1)[Ru-4]321([N]=C=S)[n]2c3ccc(OC)cc3c3c4c(c5cc(F)c[n+]1c5c32)C(=O)NC4=O (stereo not drawn),KinomeScan,,0.1 µM,relative to: untreated,remaining binding,71%
COc1cc(Nc2nccc(-c3cnn4nc(OC)ccc34)n2)cc(C(F)(F)F)c1,"binding, competition with immobilised ligand",,1 µM,,remaining binding,89%
CCN1CCN(Cc2ccc(C(=O)Nc3ccc(C)c(NCc4cnc5[nH]ccc5c4OC)c3)cc2C(F)(F)F)CC1,"binding, competition with immobilised ligand",,1 µM,,remaining binding,52%
Cc1cnc2nc1Nc1cccc(c1)COC/C=C/COCc1cc(ccc1OCCN1CCOCC1)N2,cell-free assay,,0.1 µM,,remaining signal,96%
C[C@H]1CN(C(=O)c2cn(-c3ccnc(N)n3)c3cc(C#CC4(O)CCCCC4)ccc23)CCN1,"cell-free assay, TR-FRET",,1 µM,,inhibition,-2%
O=C(c1ccc(Cl)cc1Cl)N1CCN(CC(OCc2ccc3ccccc3c2)c2ccc(Cl)cc2Cl)CC1 (stereo not drawn),"enzyme activity, inhibitor, ADP detection",,0.1 µM,,activity vs control,115%
C=CC(=O)N1CCCC(n2c(=O)c3ncccc3n(Cc3ccc(Oc4ccccc4)cc3)c2=O)C1 (stereo not drawn),"cell-free assay, competition with immobilised ligand",,1 µM,,remaining binding,45%
CC(C)=CC1OC(C)(C)C2C=C3C(=O)C(Cl)=CC(O)C3C3C(O)C4OC4C(=O)C132 (stereo not drawn),"cell-free assay, competition with immobilised ligand",,10 µM,,remaining binding,62%
O=C(c1ccc(Br)cc1)N1CCN(CC(OCc2ccc3ccccc3c2)c2ccc(Cl)cc2Cl)CC1 (stereo not drawn),"enzyme activity, inhibitor, ADP detection",,0.1 µM,,activity vs control,109%
CNC(=O)C1CCN(c2cc(C)c(F)cc2NC(=O)c2ccc(-c3cc(O)ccc3C)c(C)c2)CC1,"binding, competition with immobilised ligand",,1 µM,,remaining binding,92%
CCN1CCN(CC(=O)N2CCN(CC(OCc3ccc4ccccc4c3)c3ccc(Cl)cc3Cl)CC2)CC1 (stereo not drawn),"enzyme activity, inhibitor, ADP detection",,0.1 µM,,activity vs control,118%
Cc1nc2c(F)cc(-c3nc(Nc4ccc(CNC(=O)CCCCCCC(=O)NO)cc4)ncc3F)cc2n1C(C)C,"enzyme activity, inhibitor",,1 µM,,inhibition,34%
O=C(CN1CCCCC1)N1CCN(CC(OCc2ccc3ccccc3c2)c2ccc(Cl)cc2Cl)CC1 (stereo not drawn),"enzyme activity, inhibitor, ADP detection",,0.1 µM,,activity vs control,167%
CNC(=O)C[C@H](Cc1ccc(C#N)cc1)NC(=O)c1cc(-c2ccc(CN[C@H](C)c3ccc(C)cc3)o2)ccc1Cl,"enzyme activity, inhibitor",,1 µM,,activity vs control,92%
